Measured values of several laboratories.
Lines come from different studies, so protocols differ. Several values in a cell are separate wells, animals, samples, runs or records. ± gives the spread as reported.

The protein level of `C[C@H]1O[C@@H](O[C@H]2CC[C@@]3(C)[C@@H](CC[C@]4(C)[C@@H]3C=C[C@]35OC[C@@]6(CCC(C)(C)C[C@H]63)[C@@H](O)C[C@]54C)[C@]2(C)CO)[C@H](O)[C@@H](O[C@@H]2O[C@H](CO)[C@@H](O)[C@H](O)[C@H]2O)[C@H]1O` is reported as 0.307 and 0.374 and 0.656 (Western blot, item: caspase3; chronic-plus-binge ethanol-fed mice, liver; dose not given, high dose, unit not given; baseline: β-actin).
`FC(F)(F)Oc1cccc(-c2cnc3ccc(-c4ccncc4)nn23)c1` has a tumour size of 0.256 a.u. and 0.196 a.u. and 0.211 a.u. and 0.225 a.u. and 0.184 a.u. and 0.325 a.u. (MDA-MB-231 xenograft, NSG mouse; oral, 10 mg/kg daily, day 20; higher = larger tumour).
`Cc1ccc([C@@H]2O[C@H](CO)[C@@H](O)[C@H](O)[C@H]2O)cc1Cc1ccc(-c2ccc(F)cc2)s1` — result for “change, mean 24 h, plasma glucose”: -43 mg/dL (Japanese type 2 diabetes patients; 400 mg, day 1; baseline: day 0).
`NCC(=O)Nc1cncc(-c2nn3c(=O)cc(N4CCNCC4)nc3s2)c1` has an inhibition of 88.5% (ADP-induced platelet aggregation, light transmission aggregometry; human, stable CAD on aspirin, platelets ex vivo; subcutaneous, 0.075 mg/kg, 30 min post-dose, added: ADP 20 µM).
Under “platelet aggregation AUC”, `CSCCNc1nc(SCCC(F)(F)F)nc2c1ncn2[C@@H]1O[C@H](COP(=O)(O)OP(=O)(O)C(Cl)(Cl)P(=O)(O)O)[C@@H](O)[C@H]1O` is recorded as 52.7 ± 35.8 U (ADP-induced platelet aggregation, Multiplate aggregometry; human patients, whole blood; dose not given, 3 h).
For `CC(C)C[C@@H](NC(=O)[C@H](C)NC(=O)CNC(=O)[C@@H](NC=O)C(C)C)C(=O)N[C@@H](C)C(=O)N[C@@H](C(=O)N[C@H](C(=O)N[C@@H](C(=O)N[C@@H](Cc1c[nH]c2ccccc12)C(=O)N[C@H](CC(C)C)C(=O)N[C@@H](Cc1cccc2[nH]ccc12)C(=O)N[C@H](CC(C)C)C(=O)N[C@@H](Cc1c[nH]c2ccccc12)C(=O)N[C@H](CC(C)C)C(=O)N[C@@H](Cc1c[nH]c2ccccc12)C(=O)NCCO)C(C)C)C(C)C)C(C)C`, the EC50 was 38.8 ± 11.3 nM (H+/Na+ transport, pyranine pH-gradient; EYPC/cholesterol LUVs 2:1).
`[Cl-].[Cl-].[Pt+2].[Ru+2].c1ccc(-c2nc3ccccc3nc2-c2ccccn2)nc1.c1cnc2c(c1)ccc1cccnc12.c1cnc2c(c1)ccc1cccnc12` — result for “negative activation entropy”: 159 ± 9 J/(mol·K) (chloride substitution, UV-vis kinetics; aqueous buffer; concentration not given, pH 7.2, first substitution step, added: guanosine 5'-monophosphate).
The T/C of `O=C1N(Cc2ccccc2Cl)c2ccccc2C12NN=C(c1ccccc1)S2` (stereo not drawn) is reported as 28% (SK-BR-3 xenograft, mouse; intravenous, 867 mg/kg total, subcutaneous xenograft; baseline: vehicle).
Under “percent change from baseline”, `C[C@H]1C[C@H]2CSC(N)=N[C@@]2(c2nc(NC(=O)c3ccc(OC(F)F)cn3)cs2)CO1` is recorded as -19% (item: total Aβ; healthy adults, plasma; 3 mg single dose, 48 h post-dose; baseline: placebo).
`COc1ccc2c(c1)CC[C@@H]1[C@@H]2CC[C@]2(C)[C@@H](NCCCCCCN3C(=O)C=CC3=O)CC[C@@H]12` gave a p-PKA level of 7.46 MFI and 3.69 MFI and 5.26 MFI (immunostaining; humanized mouse, SAH model, middle cerebral artery; dose not given).
`CN(C(=O)n1cnc(-c2ccc[n+]([O-])c2)c1)C1CCCCC1` has an AUC(0-tau) of 261 ng·h/mL (item: OEA; human, plasma; 10 mg once daily, day 10).
`C[C@H](Oc1ccc(Br)cc1-c1ccon1)C(=O)O`: “difference from placebo” 18.2% (first response peak; human, tibialis anterior muscle; 100 mg, 30 Hz, single ascending dose).
The sarcomere length of `O=C(O)CNC(=O)Cc1ccccc1` is reported as 1.72 µm (ventricular cardiomyocytes, C57BL/6 mouse; dose not given, 0.716 s).
`C[C@H]1[C@H](OC(=O)CCC(=O)O)O[C@@H]2O[C@@]3(C)CC[C@H]4[C@H](C)CC[C@@H]1[C@@]24OO3` has an activity score of 3.9 (human iPSC-derived cardiomyocytes; MyBP-C/MYH ratio, plate-normalised SD score; concentration not given, primary screen; direction not given).
`Cn1cc(-c2ccc(-c3cncc(Cl)c3N3CCC4(CCNC4=O)CC3)cc2)cn1`: “log2 fold change” 2.15 (COLO 205; gene expression, microarray, item: UCHL1 mRNA; concentration not given, 6 h; baseline: untreated cells).
For `COc1ccccc1[C@H](Cn1c(=O)n(C(C)(C)C(=O)O)c(=O)c2c(C)c(-c3ncco3)sc21)OC1CCOCC1`, “blood HDL level” read 43.9 ± 10.5 mg/dL (human; 50 mg, post-treatment).
For `N#Cc1ccn2c(-c3ccncc3)c(-c3ccc(F)cc3)nc2c1`, “log2 fold change” read -0.107 (kinase binding, competitor, MIB/MS competition, item: RIM8; Candida albicans cell lysate; 10 µM; baseline: DMSO).
The AUC(0-tau) of `O[C@H]1CCCN[C@@H]1CCCn1cnc2c(Cl)c(Cl)ccc21` is reported as 93.3 ng·h/mL (ELISA, item: Pro-C6; healthy human volunteers, serum; intraduodenal, 50 mg twice daily, day 14, multiple ascending dose).
The activity score of `CC(C)(Oc1ccc(Cl)cc1)C(=O)O` is reported as 3.3 (human iPSC-derived cardiomyocytes; MyBP-C/MYH ratio, plate-normalised SD score; concentration not given, primary screen; direction not given).
Under “body weight change from baseline”, `N#Cc1ccc2c(c1)[C@H]1CCCN(C(=O)c3ccc4[nH]cnc4c3)[C@H]1C2` is recorded as 0.29 kg (human, Phase II trial; oral, 80 mg once daily, day 28, adjusted mean, SE).
With `C[C@@H](O)CCOC(=O)C[C@@H](C)O` the plasma insulin was 790 pg/mL (human; oral drink, dose not given, 120 min post dose, median, all participants).

A few entries again:
`FC(F)(F)Oc1cccc(-c2cnc3ccc(-c4ccncc4)nn23)c1` has a tumour size of 0.256 a.u. and 0.196 a.u. and 0.211 a.u. and 0.225 a.u. and 0.184 a.u. and 0.325 a.u. (MDA-MB-231 xenograft, NSG mouse; oral, 10 mg/kg daily, day 20; higher = larger tumour).
The activity score of `CC(C)(Oc1ccc(Cl)cc1)C(=O)O` is reported as 3.3 (human iPSC-derived cardiomyocytes; MyBP-C/MYH ratio, plate-normalised SD score; concentration not given, primary screen; direction not given).
